Measured values pooled from the literature.
Protocols differ between the studies behind these lines. Numbers after ± are the reported error.
Target: Voltage-gated inwardly rectifying potassium channel KCNH2 (KCNH2, Homo sapiens, UniProt Q12809)
Chain of UniProt Q12809 (whole entry, looked up): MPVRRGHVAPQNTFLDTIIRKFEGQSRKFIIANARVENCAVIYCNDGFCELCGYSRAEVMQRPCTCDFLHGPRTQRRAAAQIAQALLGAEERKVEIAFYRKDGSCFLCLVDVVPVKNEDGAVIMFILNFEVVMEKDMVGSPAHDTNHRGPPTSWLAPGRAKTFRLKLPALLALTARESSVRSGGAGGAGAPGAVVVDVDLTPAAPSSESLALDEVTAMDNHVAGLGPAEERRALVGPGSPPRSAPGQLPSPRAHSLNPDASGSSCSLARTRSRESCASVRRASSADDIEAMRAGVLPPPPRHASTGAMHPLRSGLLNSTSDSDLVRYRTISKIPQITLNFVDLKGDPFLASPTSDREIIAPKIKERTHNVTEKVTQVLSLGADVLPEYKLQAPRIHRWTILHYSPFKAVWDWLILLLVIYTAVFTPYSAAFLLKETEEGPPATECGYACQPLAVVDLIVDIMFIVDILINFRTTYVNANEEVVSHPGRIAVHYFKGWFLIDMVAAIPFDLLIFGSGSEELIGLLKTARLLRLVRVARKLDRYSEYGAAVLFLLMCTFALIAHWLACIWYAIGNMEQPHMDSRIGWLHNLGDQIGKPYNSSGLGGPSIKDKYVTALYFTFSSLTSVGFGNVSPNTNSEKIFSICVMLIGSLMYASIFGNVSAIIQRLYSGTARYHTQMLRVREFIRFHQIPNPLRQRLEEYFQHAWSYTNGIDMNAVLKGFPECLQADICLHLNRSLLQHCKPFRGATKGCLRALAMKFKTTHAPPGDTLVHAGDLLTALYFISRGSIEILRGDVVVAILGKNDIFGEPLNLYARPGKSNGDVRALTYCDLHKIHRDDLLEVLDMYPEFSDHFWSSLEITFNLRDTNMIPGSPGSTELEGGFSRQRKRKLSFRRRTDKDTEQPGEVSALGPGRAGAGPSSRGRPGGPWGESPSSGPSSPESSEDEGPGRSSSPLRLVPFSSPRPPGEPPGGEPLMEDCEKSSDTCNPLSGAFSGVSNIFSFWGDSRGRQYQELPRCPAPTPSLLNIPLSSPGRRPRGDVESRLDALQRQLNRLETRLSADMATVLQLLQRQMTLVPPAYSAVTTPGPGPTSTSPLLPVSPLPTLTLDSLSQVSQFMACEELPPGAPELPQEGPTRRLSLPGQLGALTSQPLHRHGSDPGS

Compound | test | system | setting | measurement | result
CCCOc1ccc(OC)c(F)c1C(=O)c1ccc(C(=O)N[C@@H]2CNC[C@H]2NC(=O)c2ccc3[nH]ncc3c2)cc1 | hERG tail current, inhibitor |  | 5 min | IC50 | 4.4 µM
CCCc1cc2cc(-n3nc(C)c4c3CC(C)(C)CC4=O)cc(N[C@H]3CCOC3)c2c(=O)[nH]1 | ligand displacement, FP |  |  | IC50 | 41.5 µM
C[C@@H](OC(=O)c1cccc(S(=O)(=O)Nc2ccc3c(c2)OCO3)c1)C(=O)c1c[nH]c2ccccc12 | ion current, inhibitor |  |  | IC50 | > 30 µM
CCN1/C(=C/C=C2\CCCC(/C=C/C3=[N+](CC)c4ccccc4C3(C)C)=C2NCCCCCCCCN2CCC(Nc3nc4ccccc4n3Cc3ccc(F)cc3)CC2)C(C)(C)c2ccccc21 | ion current, inhibitor, patch clamp | CHO | pH 7.4 | IC50 | 0.37 µM
CC(=O)N(c1ccccc1)c1nc(COC(=O)[C@H]2CC(=O)N(c3cccc4ccccc34)C2)cs1 | ion current, inhibitor |  |  | IC50 | > 30 µM
NS(=O)(=O)NCC(F)(F)c1ccccc1F | ion current, inhibitor, patch clamp |  |  | IC50 | > 30 µM
Cc1cccc(C)c1NC(=O)CC(C)NCc1cccc2ccccc12 (centres unmarked) | potassium current, inhibitor, patch clamp | tsA201 transfected with KCNH2 | 0.2% DMSO | lowest inhibitory concentration | > 0.1 µM
O=C(NCc1cccc(CN2CCCC2=O)c1)NCC(c1ccccc1)c1ccccc1 | ion current, inhibitor |  |  | IC50 | > 30 µM
CCC(=O)N(C)c1ccc(Cl)c(Cl)c1 | ion current, inhibitor, patch clamp | HEK293 | 50 µM | inhibition | 14%
O=C(O)c1ccc(/C=C2\SC(=S)N(Cc3cccc(C(F)(F)F)c3)C2=O)cc1 | ion current, patch clamp | CHO | 10 µM | activity | inactive
Cc1cc(O)cc(O)c1C(=O)c1c2c3c(c(O)cc(C)c3oc1=O)C(=O)c1c(O)cc(O)cc1-2 | potassium current, inhibitor | HEK293 | 2.5 µM, pH 7.4 | inhibition | 2 ± 2.3%

Repeated from above:
Compound | test | system | setting | measurement | result
CC(=O)N(c1ccccc1)c1nc(COC(=O)[C@H]2CC(=O)N(c3cccc4ccccc34)C2)cs1 | ion current, inhibitor |  |  | IC50 | > 30 µM
NS(=O)(=O)NCC(F)(F)c1ccccc1F | ion current, inhibitor, patch clamp |  |  | IC50 | > 30 µM
